# Experimental data pooled from the literature.
# Parts stem from different laboratories: compare values within a part only. Positions count from the first letter of the parent shown.

# Sample 1
# Target: CCNB2, cyclin fold, Cln2 fusion (human)
# Technique: yeast growth competition, sequencing
# Sample: yeast
# Setting: weak parent motif
# Reference: not given
# Direction: higher = stronger binding
# Starting sequence: ORC1 docking peptide (human); PRARKRLELGNLG; partner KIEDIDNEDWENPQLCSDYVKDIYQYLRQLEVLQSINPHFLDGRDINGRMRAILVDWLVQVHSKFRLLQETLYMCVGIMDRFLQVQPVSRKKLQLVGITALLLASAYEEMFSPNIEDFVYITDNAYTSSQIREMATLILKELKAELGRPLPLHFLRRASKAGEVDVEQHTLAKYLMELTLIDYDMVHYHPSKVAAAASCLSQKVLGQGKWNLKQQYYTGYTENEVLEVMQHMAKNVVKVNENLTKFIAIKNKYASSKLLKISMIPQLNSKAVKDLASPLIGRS
Substitution,normalised enrichment score
PYARKRLELGNLG [R2Y],0.218
PIARKRLELGNLG [R2I],0.943
PRYRKRLELGNLG [A3Y],1.26
PRARKRLEYGNLG [L9Y],0.259

# Sample 2
# Target: Histone acetyltransferase KAT6A, winged helix 2, GST fusion (KAT6A, Homo sapiens, UniProt Q92794, residues 85-181)
# Technique: protein binding microarray
# Form: double-stranded DNA, one strand shown
# Sample: in vitro
# Concentration: not given
# Setting: 8-mer, flanks averaged, mean of 2 arrays, mostly near background
# Reference: not given
# Direction: higher = stronger binding
# Construct (chain): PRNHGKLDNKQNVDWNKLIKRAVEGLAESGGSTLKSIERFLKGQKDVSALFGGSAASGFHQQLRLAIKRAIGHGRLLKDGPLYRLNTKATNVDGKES
Strand,E-score
CGAATTTC,0.0353
AGTCTACA,-0.202
TACACGTA,-0.187
ACATCGCA,-0.124
AGCGAGCA,0.0794
AGATACCC,0.0574
CACCTCAG,-0.109
CCCCGTAG,-0.00043
ACCTTAAT,-0.0975

# Sample 3
# Target: Prothrombin, mature alpha-thrombin (F2, Homo sapiens, UniProt P00734)
# Technique: aptamer microarray, sandwich
# Form: DNA with 2'F-ANA
# Sample: in vitro
# Concentration: 200 nM
# Setting: whole 15-mer aptamer, many near background
# With: Cy3 exosite-II aptamer, 400 nM
# Direction: higher = stronger binding
# Strand: GGTTGGTGTGGTTGG
Modification,mean fluorescence intensity [a.u.]
2'F-ANA at 2 8 13,498
2'F-ANA at 2 3 10 11 15,379
2'F-ANA at 1 3 5 7 9 11 12,103
2'F-ANA at 2 5 6 8 9,94.5
2'F-ANA at 2 3 6 7 9 12 13 14,327
2'F-ANA at 1 2 5 6 8 10 11 12 14,49.6
2'F-ANA at 1 5 6 9 12 13 15,84.4
2'F-ANA at 5 7 8 11 12 15,135
2'F-ANA at 2 3 4 6 8 9 10 13,204

# Other studies, line by line
Substance,target,test,test system,conditions,how to read,quantity,result
"PhoQ, residues 284 288 289 292 302 303 TLASMF","PhoP, residues 12 14 15 18 19 LQHIR (Escherichia coli, UniProt P23836)","Sort-seq, measured: YFP reporter",E. coli,"PhoQ-PhoP variant library, with: 10 µM Mg2+","reference: high Mg2+ state, higher = stronger signaling",fold induction,4.3

# A few entries again (sample 1):
Substitution,normalised enrichment score
PIARKRLELGNLG [R2I],0.943
PRYRKRLELGNLG [A3Y],1.26
